Measurements collected from several papers.
Compare with care: the assays were run in different laboratories. “And” joins repeats or separate records; there may be more than shown. ± gives the spread as reported.

CCN(CC)CCOc1ccc(-c2nnn(Cc3ccc(OC)cc3)c2N)cc1  respiratory function (Sprague-Dawley rat; oral, up to 100 mg/kg): no effect
O=C1NC2(CC2)COc2ncc(F)cc2[C@H]2COCCN2c2ccn3ncc1c3n2  organ-to-brain weight ratio (Sprague-Dawley rat, female, uterus; oral, 20 mg/kg/day, 4 weeks, end of treatment): 25.8 ± 5.68%
C/C(=N\OCCCN1CCCCC1)c1ccc(C(F)(F)F)cc1  Cmax (mouse, plasma; oral, 100 mg/kg once daily, day 7): 1660 ± 251 ng/mL
N#[11C]c1ccc(-c2csc(NN=C3CCCC3)n2)cc1  radioactivity uptake (C57BL/6 mice, male, heart; intravenous, 3 MBq, 15 min): 4.36 ± 0.28 %ID/g
CC[C@H](C)[C@H](NC(=O)CNC(=O)[C@H](Cc1c[nH]cn1)NC(=O)[C@H](CC(C)C)NC(=O)CNC(=O)[C@H](CC(C)C)NC(=O)[C@H](CCCCN)NC(=O)[C@H](Cc1ccccc1)NC(=O)[C@H](CC(C)C)NC(=O)[C@H](CCCCN)NC(=O)CNC(=O)[C@H](Cc1c[nH]c2ccccc12)NC(=O)[C@H](Cc1ccccc1)NC(=O)CN)C(=O)NCC(=O)N[C@@H](CC(C)C)C(=O)N[C@@H](CC(C)C)C(=O)N[C@@H](Cc1c[nH]cn1)C(=O)N[C@@H](CC(C)C)C(=O)N[C@@H](Cc1c[nH]cn1)C(=O)N[C@@H](CC(C)C)C(N)=O  chronic toxic concentration (zebrafish embryos 4 hpf, E3 medium; 24 h): 1 µM
C=Cc1c(C)c2cc3nc(c(CC(=O)[O-])c4[n-]c(cc5nc(cc1[n-]2)C(C)=C5CC)c(C)c4C(=O)[O-])C(CCC(=O)[O-])C3C.[Cu+2].[Na+].[Na+].[Na+] (stereo not shown)  serum creatinine (Wistar rat, female; oral, 250 mg/kg daily, 28 days): 0.45 ± 0.14 mg/dL
COc1cnc2cccc(N3CCc4c(cc(Cn5ccnc5)cc4-c4cn(C)nc4C(F)(F)F)C3=O)c2c1  body weight (CD-1 mice; intraperitoneal, 150 mg/kg once daily, day 5): 30.7 ± 1.8 g
CC[C@H](C)[C@H](N)C(=O)N[C@@H](CCCNC(=N)N)C(=O)N[C@H](C(=O)N[C@@H](Cc1c[nH]c2ccccc12)C(=O)N[C@@H](Cc1ccccc1)C(=O)N[C@H](C(=O)N[C@@H](CCCCN)C(=O)N[C@H](C(=O)N[C@@H](CCCNC(=N)N)C(=O)N[C@@H](CCCCN)C(=O)N[C@@H](CCSC)C(=O)N[C@@H](CCCCN)C(=O)N[C@@H](C)C(=O)N[C@H](C(=O)N[C@@H](Cc1ccc(O)cc1)C(=O)N[C@@H](Cc1c[nH]cn1)C(N)=O)[C@@H](C)CC)C(C)C)[C@@H](C)CC)C(C)C  elution acetonitrile content (reversed-phase UPLC; C18 column, TFA): 44.4%
Cn1nc(NS(C)(=O)=O)c2c(Cl)ccc(-n3c([C@H](Cc4cc(F)cc(F)c4)NC(=O)Cn4nc(C(F)F)c5c4C(F)(F)[C@@H]4C[C@H]54)nc4nc(OCCC(F)(F)F)ccc4c3=O)c21  AUC(0-inf) (human, plasma; oral, 1875 mg single dose, powder in bottle, geometric mean): 36300 ng·h/mL
CCCCCCCCCCCCCCCC(=O)N[C@@H](CCC(=O)NCCOCCOCCC(=O)NCCOCCOCCC(=O)NCCCC[C@H](NC(=O)[C@H](CC(=O)O)NC(=O)[C@H](CC(C)C)NC(=O)[C@H](Cc1ccc(O)cc1)NC(=O)[C@H](CCCCN)NC(=O)[C@H](CO)NC(=O)[C@H](Cc1ccc(O)cc1)NC(=O)[C@H](CC(=O)O)NC(=O)[C@H](CO)NC(=O)[C@@H](NC(=O)[C@H](Cc1ccccc1)NC(=O)[C@@H](NC(=O)CNC(=O)[C@H](CCC(N)=O)NC(=O)[C@@H](CO)NC(=O)[C@@H](N)Cc1c[nH]cn1)[C@@H](C)O)[C@@H](C)O)C(=O)N[C@@H](CCCNC(=N)N)C(=O)N[C@@H](CCCNC(=N)N)C(=O)N[C@@H](C)C(=O)N[C@@H](CCC(N)=O)C(=O)N[C@@H](CC(=O)O)C(=O)N[C@@H](Cc1ccccc1)C(=O)N[C@H](C(=O)N[C@@H](CCC(N)=O)C(=O)N[C@@H](Cc1c[nH]c2ccccc12)C(=O)N[C@@H](CC(C)C)C(=O)N[C@@H](CC(C)C)C(=O)N[C@@H](CC(N)=O)C(=O)N[C@H](C(=O)NCC(=O)NCC(=O)N1CCC[C@H]1C(=O)N[C@@H](CO)C(=O)N[C@@H](CO)C(=O)NCC(=O)N[C@@H](C)C(=O)N1CCC[C@H]1C(=O)N1CCC[C@H]1C(=O)N1CCC[C@H]1C(=O)N[C@@H](CO)C(N)=O)[C@@H](C)O)C(C)C)C(=O)O  Cmax (rhesus monkey, plasma; subcutaneous, 20 µg/kg, single dose): 12 ng/mL
CSCC[C@H](N)C(=O)N[C@@H](C)C(=O)N[C@@H](Cc1c[nH]c2ccccc12)C(=O)N[C@@H](Cc1c[nH]cn1)C(=O)N[C@@H](CC(=O)O)C(=O)N[C@@H](CC(=O)O)C(=O)N[C@@H](CCC(=O)O)C(=O)N[C@@H](CCC(=O)O)C(=O)N[C@@H](Cc1ccccc1)C(=O)N[C@@H](C)C(=O)N[C@@H](CCCNC(=N)N)C(=O)N[C@@H](CCCNC(=N)N)C(=O)N[C@@H](CCCNC(=N)N)C(=O)N[C@@H](CCCNC(=N)N)C(=O)NCCCCCC(=O)NCCCCC(NC(=O)CCCCCNC(=O)[C@H](CCCNC(=N)N)NC(=O)[C@H](CCCNC(=N)N)NC(=O)[C@H](CCCNC(=N)N)NC(=O)[C@H](CCCNC(=N)N)NC(=O)[C@H](C)NC(=O)[C@H](Cc1ccccc1)NC(=O)[C@H](CCC(=O)O)NC(=O)[C@H](CCC(=O)O)NC(=O)[C@H](CC(=O)O)NC(=O)[C@H](CC(=O)O)NC(=O)[C@H](Cc1c[nH]cn1)NC(=O)[C@H](Cc1c[nH]c2ccccc12)NC(=O)[C@H](C)NC(=O)[C@@H](N)CCSC)C(=O)NCCCCC(NC(=O)C(CCCCNC(=O)CCCCCNC(=O)[C@H](CCCNC(=N)N)NC(=O)[C@H](CCCNC(=N)N)NC(=O)[C@H](CCCNC(=N)N)NC(=O)[C@H](CCCNC(=N)N)NC(=O)[C@H](C)NC(=O)[C@H](Cc1ccccc1)NC(=O)[C@H](CCC(=O)O)NC(=O)[C@H](CCC(=O)O)NC(=O)[C@H](CC(=O)O)NC(=O)[C@H](CC(=O)O)NC(=O)[C@H](Cc1c[nH]cn1)NC(=O)[C@H](Cc1c[nH]c2ccccc12)NC(=O)[C@H](C)NC(=O)[C@@H](N)CCSC)NC(=O)CCCCCNC(=O)[C@H](CCCNC(=N)N)NC(=O)[C@H](CCCNC(=N)N)NC(=O)[C@H](CCCNC(=N)N)NC(=O)[C@H](CCCNC(=N)N)NC(=O)[C@H](C)NC(=O)[C@H](Cc1ccccc1)NC(=O)[C@H](CCC(=O)O)NC(=O)[C@H](CCC(=O)O)NC(=O)[C@H](CC(=O)O)NC(=O)[C@H](CC(=O)O)NC(=O)[C@H](Cc1c[nH]cn1)NC(=O)[C@H](Cc1c[nH]c2ccccc12)NC(=O)[C@H](C)NC(=O)[C@@H](N)CCSC)C(N)=O (stereo partly shown)  mean tissue distribution (C57BL/6 mouse female, thymus; dose not given, 6 h; baseline: total): 0.78%
O=C(CN1C(=O)C2(CCN(C(=O)c3ccc4[nH]ncc4n3)CC2)c2c(Br)cccc21)NCC(F)(F)F  bioavailability (C57BL/6 mice, male; intraperitoneal, 10 mg/kg): 79 ± 25%
CC[C@H](C)[C@H](NC(=O)[C@H](CCCCN)NC(=O)CNC(=O)[C@H](CC(C)C)NC(=O)[C@H](Cc1ccccc1)NC(=O)[C@H](CCCCN)NC(=O)[C@H](CO)NC(=O)[C@H](Cc1ccccc1)NC(=O)[C@H](Cc1c[nH]c2ccccc12)NC(=O)[C@H](CCC(N)=O)NC(=O)[C@@H](NC(=O)[C@H](Cc1ccccc1)NC(=O)CCCCCNC(=O)CN1CCN(CC(=O)O)CCN(CC(=O)O)CCN(CC(=O)O)CC1)C(C)C)C(=O)N[C@@H](CCC(=O)O)C(=O)N1CCC[C@H]1C(=O)N[C@@H](CC(=O)O)C(=O)N[C@H](C(=O)N[C@@H](CO)C(=O)N[C@@H](CCC(N)=O)C(=O)N[C@H](C(=O)N[C@@H](CCC(N)=O)C(=O)N[C@@H](CC(=O)O)C(=O)N1CCC[C@H]1C(=O)N[C@@H](CC(N)=O)C(=O)N[C@@H](CC(=O)O)C(=O)N[C@@H](CCC(N)=O)C(=O)N[C@@H](Cc1ccc(O)cc1)C(=O)N[C@@H](CCC(=O)O)C(=O)N1CCC[C@H]1C(=O)N[C@@H](Cc1ccccc1)C(=O)O)C(C)C)C(C)C [copper-64 labelled]  tissue uptake (C57BL/6 mice, blood; together with: LPS 3 mg/kg intratracheal): 1.19 ± 0.2 %ID/g
NC1CCN(C(=O)Oc2ccc(C3CCCC4(C3)OOC3(O4)C4CC5CC(C4)CC3C5)cc2)CC1 (racemic)  bioavailability (male Sprague-Dawley rat, plasma; oral, 50 mg/kg): 27.6%
CCc1nn(C)c2nc(-c3ccc(C(=O)O)cc3)nc(NCc3ccccc3)c12  body weight (NSG mice; dose not given, day 1 of treatment): 23 g and 22.7 g and 21.7 g and 22.5 g
CC(C)=CCC/C(C)=C\CCn1cc(CC(P(=O)(O)O)P(=O)(O)O)nn1  concentration (mouse CD-1, bile; intravenous, 0.3 mg/kg, 2 h): 2460 ± 1260 ng/mL

A few entries again:
CC[C@H](C)[C@H](NC(=O)CNC(=O)[C@H](Cc1c[nH]cn1)NC(=O)[C@H](CC(C)C)NC(=O)CNC(=O)[C@H](CC(C)C)NC(=O)[C@H](CCCCN)NC(=O)[C@H](Cc1ccccc1)NC(=O)[C@H](CC(C)C)NC(=O)[C@H](CCCCN)NC(=O)CNC(=O)[C@H](Cc1c[nH]c2ccccc12)NC(=O)[C@H](Cc1ccccc1)NC(=O)CN)C(=O)NCC(=O)N[C@@H](CC(C)C)C(=O)N[C@@H](CC(C)C)C(=O)N[C@@H](Cc1c[nH]cn1)C(=O)N[C@@H](CC(C)C)C(=O)N[C@@H](Cc1c[nH]cn1)C(=O)N[C@@H](CC(C)C)C(N)=O  chronic toxic concentration (zebrafish embryos 4 hpf, E3 medium; 24 h): 1 µM
